Assay results pooled from the literature.
Every numbered part comes from another study and shows a few of its results, in no order.

Block 1
Target: RNA binding protein fox-1 homolog 2, RRM domain, GST-SBP tag (RBFOX2, Homo sapiens, UniProt O43251-10, residues 100-194)
Method: RNA Bind-n-Seq
Molecule type: RNA
Matrix: in vitro
Tested at: 365 nM
Setting: natural RNA segment, single round, ends assumed
Baseline: no-protein control
Reading: higher = stronger binding
Constant ends, left off below: GGGAGUUCUACAGUCCGACGAUC … UGGAAUUCUCGGGUGCCAA
Construct (chain): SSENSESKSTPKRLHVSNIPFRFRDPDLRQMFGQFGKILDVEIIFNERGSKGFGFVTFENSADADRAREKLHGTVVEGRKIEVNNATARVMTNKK
| Strand | RBNS enrichment (R) |
| --- | --- |
| AAGUUGAGGCCCAGAGAAUUUAAAGCACAUGUUCAUUUCUGUUGUCAUGGAUACAAAGCUAGGUUUGUCUCUCAACUCUCAUACUGCCAAAAGUUAAACUAUGAUGCUUA | 0.61 |
| CAUUCACAGAGUAGCUGUGAGUUCUUGGUAAUGUGAAAAAGGCCUUGUUUUUCAGAAAUUCCUGGGUUUCCUGUUAAAAAAUCUUAAAGCCCAACCUUAGGAAUAUAGUG | 0.828 |
| CACUGCUCAUGUGUGGAUGCCCCUGCAACAGGCUUCCCUGUCUGUAGAGCCAGGGGUGCAAGUGCCAUCCACACUUGCAGUGAAUGGCUUUUCCUUUUAGGUUUAAGUCC | 0.583 |
| AUCCCCGAGGGAAGAGAGGUACCCAUGGCUUCAGUGAGCACAUGCCAAGCCCAGGAUGCCAGCUGGCACCUCUGCAAUCUCCCCACCAAAUACACAGAGCCAGCUCUACC | 0.371 |
| ACACUUUGAGAUACUUAAAGAAAUUCAGAGCAUAUCGAAUGUUAUGAAUGAAGAGUAAAAUAAUUACAGGAAAAGAAUGCAUGAUUUUUCAUUGUCACACCAAAUAACCA | 40.9 |
| GAGGUCAGUGUUUACUGUUUUAUAUAUGCCUUCUUUUUCCUGUUUGAGCUUCUCUCUUUGAAGGAUUCUAACAGAACAAAGCUGCUGAUCAACCUAAGUUGGAAACAGAA | 0.611 |
| AAAGAUUUGAUAACUUUUCUAAUGCCUGACUAGUAAGUUUUAAAACAUCAUUCUUUAAAAGAAUAGUUUAAUACUUUUGGUUAUUCCAAUCUUCAAUGUUAACCCAAAGG | 1.63 |
| CCUCAGCCUGGGACACCUAGGUGGAGAGAGUGGUCUCCGCUCUGAAUUGGAUCCAGGGGACCUGGGCUCAUUCUUCUUGGCUCACCAACCCUGCAGGCCUCAUCUUUCCC | 0.343 |
| AAACUCCUUAAUAUGAUCUGUGGAGAAUGUACACAGUUUAAACACAUCAAUAAAUACUUUAACUUCCACCGAGACUGCUCGUUUCACUGACUGCGGCAUUGAUCUGCGUG | 5.63 |
| UAUCUGGAAAAUUCCAGAGCUAUUAUUUACUCCUUACCAAGGGAAGUUACUUCUUGUAAAAACUUUUAAGCCAUUUAUCAACAAGUUCUUGUUGACUCAGGGCAUAAUGA | 0.371 |
| AGAGCUGGGCCCCCUGAGCCCACUGGGUCUUCAGGGUGCACUGGAAGCUGGUGUUCGCUGUCCCCUGUGCACUUCUCGCACUGGGGCAUGGAGUGCCCAUGCAUACUCUG | 0.212 |
| AUUUGUCAUCGGUCAUUAGCCUCCCUCUGUGCUCCCUGGCACUCUUAAUAUAGAUUGAACCAGAAAGGUGACCCCUAGCUGUUGACUUAUUGUCACCCUAAAAAAAAAAA | 0.374 |

Block 2
Target: Sal-like protein 4, full length isoform B (SALL4, Homo sapiens, UniProt Q9UJQ4-2, residues 1-616)
Method: universal PBM
Molecule type: double-stranded DNA, one strand shown
Matrix: in vitro
Tested at: not given
Setting: 8-mer, flanks averaged, mean of replicates
Reading: higher = stronger binding
| Strand | E-score |
| --- | --- |
| GTACCCAA | -0.176 |
| CGCTCGCA | -0.233 |
| CATTTAGC | 0.064 |
| AAACTTAG | 0.115 |
| AGACTGAT | -0.00294 |
| GAATCGTA | 0.124 |
| AATACAAG | 0.264 |
| CGTCTTAA | -0.0207 |
| AGAGATTC | 0.0567 |
| GGAAAGTA | 0.157 |
| CCATATGC | 0.0911 |
| CGCGGATC | -0.255 |
| AGCAAGCC | -0.181 |
| ATACCGGC | -0.201 |
| AACAGCGG | -0.112 |
| AAATCCTT | 0.214 |
| ATTAAAAC | 0.341 |
| ATCAACCG | -0.104 |
| CCGGACTC | -0.123 |
| AGACACGA | 0.0469 |
| ATGTTTTC | 0.295 |
| AATTCCGA | 0.128 |
| AGGGATAC | 0.0344 |

Block 3
Target: Fragile X messenger ribonucleoprotein 1, C-terminal low-complexity region (Fmr1, Mus musculus, UniProt P35922)
Method: RNA Bind-n-Seq
Molecule type: RNA
Matrix: in vitro
Tested at: 200 nM
Setting: whole 134-nt RNA, ends assumed
With: 150 mM LiCl
Baseline: input library
Reading: higher = stronger binding
Each molecule: 7-deaza-guanosine replaces G
Constant ends, left off below: GGGAGUUCUACAGUCCGACGAUC … UGGAAUUCUCGGGUGUCAAGG
| Strand | log2 enrichment |
| --- | --- |
| CCUCAAGUCCUGUGCUACACAUCGUAUGUACCGAAUCGGGGCCGGCCGGCCGGAAAGUAUUAUGUUACGCCGUUCGGAUCUGCACUUCCA | 0.592 |
| UGGGAGGUGGAUUUUGUUUAUUUUUUUAGCUCAUUUCCAGGGGUGGGAAUUUUUUUUUAAUAUGUGCCAUGAAUAAAGUUGUUUUUGAAA | 0.361 |
| UGGGAGGUGGAUUUUGUUUAUUUUUUUAGCUCAUUUCCAGGGGUGGGAAUUUUUUUUUAAUAUGUGUCAUGAAUAAAGUUGUUUUUGAGA | 0.764 |
| UCAAGUCCUGUGCUACACAUCGUAUGUACCGAAUCGGGGAAGGGGAAGGAAGGGGAAAGUAUUAUGUUACGCCGUUCGGAUCUGCACUUC | -0.741 |
| CAAGUCCUGUGCUACACAUCGUAUGUACCGAAUCGGGAAAGGGAAAGGGGAAAGGAAAGUAUUAUGUUACGCCGUUCGGAUCUGCACUUC | -0.971 |
| UCAAGUCCUGUGCUACACAUCGUAUGUACCGAAUCGGGGAAGGGGAAGGAAGGGAAAGUAUUAUGUUACGCCGUUCGGAUCUGCACUUCC | -1.05 |
| ACCAUGCAGGUGGGCAAAUUUGGGAAGUGGGGCAAGGGGGGGAUAGGGAGGGGGGUAACACUUUGGGAACAGGUGGUCCCAGGUCGUUUC | 1.51 |
| UGCAUUUCCUGAGCUGAAGAAGGACCCAGACAUGGUGAAGGACAUCAUUAAUGAAGAAGAGGUGCAGUUUCUCAAGACUCUCAGCAGAGG | -2.28 |
| UGGAACAGCAGCUGCCACUCAGGCGUAAUUCCCACCUAGAGGAGAGUUUCACAUCCACCGAAGAAUCUUCCGAAGAAAAUGUCAACUUUU | 1.18 |
| GCAGGAAGUAAAAACAAAUGGAAAUGCUUCGGAUAGUGGCAGGGGUGGGGGUUACUAAGGAAAGGGUGGGAUGGGAGUGGGUAAAGAGUU | 1.47 |
| UAACUGUAGAGGAGGAUCUGAUGGAUAUGGCAGUGGACGUGGAUUUGGGGAUGGCUAUAAUGGGUAUGGAGGAGGACCUGGAGGUGGCAA | 1.13 |

Block 4
Target: Interferon regulatory factor 7, full length, phosphomimetic (IRF7, Homo sapiens, UniProt Q92985, residues 1-503, S471D/S472D/S475D/S476D/S477D/S483D/S484D/S487D)
Method: protein-binding microarray
Molecule type: double-stranded DNA, one strand shown
Matrix: in vitro
Tested at: 2200 nM top
Setting: 60-bp whole probe
With: salmon DNA 0.4 mg/ml
Baseline: random background probes
Reading: higher = stronger binding
Constant ends, left off below: GCCTAGCAC … GTCTTGATTCGCTTGACGCTGCTG
Residues (chain): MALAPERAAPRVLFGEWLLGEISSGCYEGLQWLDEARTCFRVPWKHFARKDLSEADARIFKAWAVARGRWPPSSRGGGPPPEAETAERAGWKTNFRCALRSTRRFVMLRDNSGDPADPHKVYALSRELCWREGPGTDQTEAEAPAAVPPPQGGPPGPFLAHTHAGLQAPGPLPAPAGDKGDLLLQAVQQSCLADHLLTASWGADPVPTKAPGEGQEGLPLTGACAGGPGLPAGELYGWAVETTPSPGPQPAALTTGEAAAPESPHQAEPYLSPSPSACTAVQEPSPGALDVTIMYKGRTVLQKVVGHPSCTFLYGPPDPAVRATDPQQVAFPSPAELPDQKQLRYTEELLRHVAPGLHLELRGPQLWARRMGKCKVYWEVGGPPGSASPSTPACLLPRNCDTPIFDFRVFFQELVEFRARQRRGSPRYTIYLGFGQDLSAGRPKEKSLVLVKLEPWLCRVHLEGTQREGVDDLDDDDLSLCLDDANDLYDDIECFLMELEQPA
| Strand | fitted relative affinity [z-score] |
| --- | --- |
| GACGGTTTCCTTTCCCTGGCGTGCTAG | 4.51 |
| GACGGTATCGGGTATCGGGATGTGCTA | 0.15 |
| TTAGGTCTCGGTTTCGGCTAGTGCTAG | 3.37 |
| CACTGACACCGATTTCATCACGTGCTA | 0.913 |
| GACGGTTTCCACTATCGGGACGTGCTA | 2.12 |
| GACGGTCTCCTTTTCCTGACGTGCTAG | 1.72 |
| TTAGATTTCAATTCCGATTAGTGCTAG | 0.773 |
| GACGGCATCGACTTTCGGGACGTGCTA | 2.16 |
| TCAAGACTTGATTTTGGACTGTGCTAG | -0.0879 |
| TTAGAACTGAGTATCGGTTAGTGCTAG | -0.161 |
| GACGGACTGGGGCTCGGGACGTGCTAG | -0.959 |
| GAAGATGTGTATATGACAATGTGCTAG | -0.0302 |
| TTAGGTATCGACTTTCGGGTAGTGCTA | 4.18 |
| AATTACATTTCATAGAGTGTGTGCTAG | 0.609 |
| AACGGACTGGGGACTGGGGACGTGCTA | -0.568 |
| CAGTTAATGAAAATTCTAATTGTGCTA | -0.276 |
| TACGATTTCAGTTCCGAGACGTGCTAG | 1.98 |
| GACGCTATCCTACTGCTGACGTGCTAG | 1.19 |
| TTAGATCGCAGTATCGATTAGTGCTAG | -0.0996 |
| TCAGGTGTTCTTTTCTGACTGTGCTAG | 1.07 |
| TACTTTCTATGTCTGTTTTTGTGCTAG | 4.96 |
| TTAGGTATGCTTATCCTTTAGTGCTAG | 0.552 |
| TCAGATTTCAGTTTTCTACTGTGCTAG | 2.48 |
| GACGGTCTCGGACTGGGAACGTGCTAG | -0.512 |
| CTGAGATGCATTCTGGGCCCGTGCTAG | -0.379 |

A few entries again (block 1):
| Strand | RBNS enrichment (R) |
| --- | --- |
| GAGGUCAGUGUUUACUGUUUUAUAUAUGCCUUCUUUUUCCUGUUUGAGCUUCUCUCUUUGAAGGAUUCUAACAGAACAAAGCUGCUGAUCAACCUAAGUUGGAAACAGAA | 0.611 |
| AGAGCUGGGCCCCCUGAGCCCACUGGGUCUUCAGGGUGCACUGGAAGCUGGUGUUCGCUGUCCCCUGUGCACUUCUCGCACUGGGGCAUGGAGUGCCCAUGCAUACUCUG | 0.212 |
| AAAGAUUUGAUAACUUUUCUAAUGCCUGACUAGUAAGUUUUAAAACAUCAUUCUUUAAAAGAAUAGUUUAAUACUUUUGGUUAUUCCAAUCUUCAAUGUUAACCCAAAGG | 1.63 |
| AUCCCCGAGGGAAGAGAGGUACCCAUGGCUUCAGUGAGCACAUGCCAAGCCCAGGAUGCCAGCUGGCACCUCUGCAAUCUCCCCACCAAAUACACAGAGCCAGCUCUACC | 0.371 |
| CAUUCACAGAGUAGCUGUGAGUUCUUGGUAAUGUGAAAAAGGCCUUGUUUUUCAGAAAUUCCUGGGUUUCCUGUUAAAAAAUCUUAAAGCCCAACCUUAGGAAUAUAGUG | 0.828 |
| CCUCAGCCUGGGACACCUAGGUGGAGAGAGUGGUCUCCGCUCUGAAUUGGAUCCAGGGGACCUGGGCUCAUUCUUCUUGGCUCACCAACCCUGCAGGCCUCAUCUUUCCC | 0.343 |
| AAACUCCUUAAUAUGAUCUGUGGAGAAUGUACACAGUUUAAACACAUCAAUAAAUACUUUAACUUCCACCGAGACUGCUCGUUUCACUGACUGCGGCAUUGAUCUGCGUG | 5.63 |
| AUUUGUCAUCGGUCAUUAGCCUCCCUCUGUGCUCCCUGGCACUCUUAAUAUAGAUUGAACCAGAAAGGUGACCCCUAGCUGUUGACUUAUUGUCACCCUAAAAAAAAAAA | 0.374 |
| AAGUUGAGGCCCAGAGAAUUUAAAGCACAUGUUCAUUUCUGUUGUCAUGGAUACAAAGCUAGGUUUGUCUCUCAACUCUCAUACUGCCAAAAGUUAAACUAUGAUGCUUA | 0.61 |
| ACACUUUGAGAUACUUAAAGAAAUUCAGAGCAUAUCGAAUGUUAUGAAUGAAGAGUAAAAUAAUUACAGGAAAAGAAUGCAUGAUUUUUCAUUGUCACACCAAAUAACCA | 40.9 |
| UAUCUGGAAAAUUCCAGAGCUAUUAUUUACUCCUUACCAAGGGAAGUUACUUCUUGUAAAAACUUUUAAGCCAUUUAUCAACAAGUUCUUGUUGACUCAGGGCAUAAUGA | 0.371 |
| CACUGCUCAUGUGUGGAUGCCCCUGCAACAGGCUUCCCUGUCUGUAGAGCCAGGGGUGCAAGUGCCAUCCACACUUGCAGUGAAUGGCUUUUCCUUUUAGGUUUAAGUCC | 0.583 |
